Assay results gathered from unrelated publications.
Compare with care: the assays were run in different laboratories. Numbers after ± are the reported error.

SMILES | assay | system | setting | CL/F
Cn1cncc1[C@@](N)(c1ccc(Cl)cc1)c1ccc2c(c1)c(-c1cccc(Cl)c1)cc(=O)n2C |  | human patients | oral, 300 mg/m2, first dose, range | 148 to 2700 mL/min/m2
Cn1cc(-c2cn3nccc3c(-c3cnn([C@]4(CC#N)C[C@@H](C#N)C4)c3)n2)cn1 |  | healthy human fasted | 1600 mg single dose | 135 L/h
Cc1ncnc2c1ccn2[C@@H]1C[C@H](Oc2cc(C(F)F)c(F)c3c2CNCC3)[C@@H](O)[C@H]1O |  | human, plasma | 0.5 mg once daily | 12.4 L/h
C#C[C@]1(CO)O[C@@H](n2cnc3c(N)nc(F)nc32)C[C@@H]1O |  | human, fed, plasma | oral, 30 mg, geometric mean | 24.3 L/h
COC(=O)N[C@@H](C)CNc1nccc(-c2cn(C(C)C)nc2-c2cc(Cl)cc(NS(C)(=O)=O)c2F)n1 |  | human, plasma | oral, 50 mg, alone, diltiazem study | 29 L/h
CCn1cc(C(=O)N2CCOCC2)c(=O)c2cc(NC3Cc4ccccc4C3)cnc21 |  | human overall, fed, plasma | oral, 900 mg twice daily, day 1, tablet, arithmetic mean | 27.8 L/h
CCN1CCN(Cc2ccc(Nc3ncc(F)c(-c4cc(F)c5nc(C)n(C(C)C)c5c4)n3)nc2)CC1 |  | fasted healthy human subjects | oral, 200 mg, 2 × 100 mg capsules | 50.8 L/h
Cn1nnc2c(C(N)=O)ncn2c1=O |  | human patients, plasma | oral, 40 mg/m2, day 5, dose level DL5, median, with: talazoparib 600 µg/m2 | 6.5 L/h/m2
O=C(O)CCC(=O)O.[2H]C([2H])([2H])Oc1cc(C)c2[nH]ccc2c1CN1CC[C@@H](C2CC2)C[C@H]1c1ccc(C(=O)O)cc1 | LC-MS/MS, mean | human, plasma | 400 mg, single dose, fasting | 2.71 L/h
C=CC(=O)NC1CCN(c2ncc3ncnc(Nc4ccc(Oc5ccc6c(c5)ncn6C)c(C)c4)c3n2)CC1 |  | human, plasma | oral, 240 mg single dose, fasted, geometric mean | 9.42 L/h
Cn1c(=O)oc2ccc(-c3ccc(C[C@@H](C#N)NC(=O)[C@@H]4CNCCCO4)cc3)cc21 |  | human, severe renal impairment, plasma | oral, 25 mg single dose, mean | 9.97 L/h
CC1(C)CC[C@]2(NC(=O)C(C)(F)F)CC[C@]3(C)[C@H](C(=O)C=C4[C@@]5(C)C=C(C#N)C(=O)C(C)(C)[C@@H]5CC[C@]43C)[C@@H]2C1 |  | human | mean, with: efavirenz once daily | 224 L/h
C#Cc1cccc(Nc2ncnc3cc(OCCOC)c(OCCOC)cc23)c1 |  | human | oral, 100 mg, day 1 | 8.1 ± 3.89 L/h
CN1C(=O)[C@@H](NC(=O)c2nnc(Cc3ccccc3)[nH]2)COc2cccnc21 |  | healthy human, fasted, plasma | oral, 30 mg single dose, geometric mean | 5.39 L/h
C[C@@H](Oc1ccc(S(C)(=O)=O)cc1C(=O)N1C[C@@H]2C[C@]2(c2cc(C(F)(F)F)on2)C1)C(F)(F)F | LC-MS/MS | young human subjects, plasma | oral, 75 mg twice daily, steady state, multiple doses | 7.8 L/h
NC(=S)NN=Cc1ncccc1N |  | human, plasma | oral, 150 mg | 145 L/h
CC1(COc2ccc3c(c2)ncn3-c2ccc3cccc(N4CCC(N)CC4)c3n2)COC1 |  | human patients, recurrent/progressive HGG or DIPG, serum | oral, 130 mg/m^2, day 28, median | 36.4 L/h/m²

Some of these lines once more:
SMILES | assay | system | setting | CL/F
C=CC(=O)NC1CCN(c2ncc3ncnc(Nc4ccc(Oc5ccc6c(c5)ncn6C)c(C)c4)c3n2)CC1 |  | human, plasma | oral, 240 mg single dose, fasted, geometric mean | 9.42 L/h
Cn1c(=O)oc2ccc(-c3ccc(C[C@@H](C#N)NC(=O)[C@@H]4CNCCCO4)cc3)cc21 |  | human, severe renal impairment, plasma | oral, 25 mg single dose, mean | 9.97 L/h
CC1(C)CC[C@]2(NC(=O)C(C)(F)F)CC[C@]3(C)[C@H](C(=O)C=C4[C@@]5(C)C=C(C#N)C(=O)C(C)(C)[C@@H]5CC[C@]43C)[C@@H]2C1 |  | human | mean, with: efavirenz once daily | 224 L/h
